Measured values from different studies.
A part holds a random share of what one study measured.
UniProt Q15759, sequence (whole entry, looked up): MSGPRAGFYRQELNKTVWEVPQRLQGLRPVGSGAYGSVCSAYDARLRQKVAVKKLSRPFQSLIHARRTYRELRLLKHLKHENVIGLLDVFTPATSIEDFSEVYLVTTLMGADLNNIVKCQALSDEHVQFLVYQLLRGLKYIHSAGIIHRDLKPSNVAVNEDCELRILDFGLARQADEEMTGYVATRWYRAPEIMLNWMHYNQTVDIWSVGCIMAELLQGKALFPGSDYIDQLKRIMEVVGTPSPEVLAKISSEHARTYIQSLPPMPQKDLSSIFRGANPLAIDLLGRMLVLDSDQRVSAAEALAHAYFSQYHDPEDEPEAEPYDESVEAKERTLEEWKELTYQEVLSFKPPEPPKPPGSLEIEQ
UniProt P42336, sequence (whole entry, unmodified, looked up): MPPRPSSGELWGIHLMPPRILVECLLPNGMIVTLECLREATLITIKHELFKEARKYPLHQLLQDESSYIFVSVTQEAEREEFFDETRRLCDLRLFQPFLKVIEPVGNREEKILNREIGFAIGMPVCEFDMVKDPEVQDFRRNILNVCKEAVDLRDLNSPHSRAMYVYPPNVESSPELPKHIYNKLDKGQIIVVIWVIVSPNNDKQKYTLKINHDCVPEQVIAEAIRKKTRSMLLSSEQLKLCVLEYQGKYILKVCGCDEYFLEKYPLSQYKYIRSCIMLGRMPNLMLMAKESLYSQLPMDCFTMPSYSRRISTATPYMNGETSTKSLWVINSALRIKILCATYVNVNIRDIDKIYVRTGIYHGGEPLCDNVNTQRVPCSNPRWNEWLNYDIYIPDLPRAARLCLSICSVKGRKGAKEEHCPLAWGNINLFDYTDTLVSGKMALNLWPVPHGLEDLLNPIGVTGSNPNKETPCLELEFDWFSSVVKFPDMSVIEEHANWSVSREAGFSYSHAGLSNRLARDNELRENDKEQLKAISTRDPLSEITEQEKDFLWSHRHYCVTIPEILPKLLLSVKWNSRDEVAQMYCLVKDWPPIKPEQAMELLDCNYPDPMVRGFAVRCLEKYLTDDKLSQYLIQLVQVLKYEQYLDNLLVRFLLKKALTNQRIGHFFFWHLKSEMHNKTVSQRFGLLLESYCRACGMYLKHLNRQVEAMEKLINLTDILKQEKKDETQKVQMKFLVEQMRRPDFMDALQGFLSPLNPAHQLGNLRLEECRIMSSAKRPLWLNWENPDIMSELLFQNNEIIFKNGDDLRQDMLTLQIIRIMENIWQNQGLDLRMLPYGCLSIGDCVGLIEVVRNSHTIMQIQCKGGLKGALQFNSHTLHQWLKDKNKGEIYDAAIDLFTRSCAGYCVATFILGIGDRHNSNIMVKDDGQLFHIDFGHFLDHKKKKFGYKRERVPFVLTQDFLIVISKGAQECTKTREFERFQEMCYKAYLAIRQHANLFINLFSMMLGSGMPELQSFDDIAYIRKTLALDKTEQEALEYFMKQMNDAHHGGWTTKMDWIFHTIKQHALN
UniProt Q00537, sequence (whole entry, looked up): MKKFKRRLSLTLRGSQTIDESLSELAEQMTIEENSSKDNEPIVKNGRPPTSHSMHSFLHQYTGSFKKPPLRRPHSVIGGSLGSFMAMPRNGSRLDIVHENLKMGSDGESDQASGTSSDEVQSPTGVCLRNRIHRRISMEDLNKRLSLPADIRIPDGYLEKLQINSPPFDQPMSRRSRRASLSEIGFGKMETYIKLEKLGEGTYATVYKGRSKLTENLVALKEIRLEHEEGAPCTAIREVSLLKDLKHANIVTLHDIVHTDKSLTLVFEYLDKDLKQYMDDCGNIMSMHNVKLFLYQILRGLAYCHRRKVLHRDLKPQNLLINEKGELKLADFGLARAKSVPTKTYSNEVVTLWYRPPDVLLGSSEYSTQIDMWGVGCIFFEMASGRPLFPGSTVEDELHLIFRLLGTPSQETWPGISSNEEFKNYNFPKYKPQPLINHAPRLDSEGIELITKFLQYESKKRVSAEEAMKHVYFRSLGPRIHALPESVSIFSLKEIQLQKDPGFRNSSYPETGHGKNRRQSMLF
UniProt Q12851, sequence (whole entry, looked up): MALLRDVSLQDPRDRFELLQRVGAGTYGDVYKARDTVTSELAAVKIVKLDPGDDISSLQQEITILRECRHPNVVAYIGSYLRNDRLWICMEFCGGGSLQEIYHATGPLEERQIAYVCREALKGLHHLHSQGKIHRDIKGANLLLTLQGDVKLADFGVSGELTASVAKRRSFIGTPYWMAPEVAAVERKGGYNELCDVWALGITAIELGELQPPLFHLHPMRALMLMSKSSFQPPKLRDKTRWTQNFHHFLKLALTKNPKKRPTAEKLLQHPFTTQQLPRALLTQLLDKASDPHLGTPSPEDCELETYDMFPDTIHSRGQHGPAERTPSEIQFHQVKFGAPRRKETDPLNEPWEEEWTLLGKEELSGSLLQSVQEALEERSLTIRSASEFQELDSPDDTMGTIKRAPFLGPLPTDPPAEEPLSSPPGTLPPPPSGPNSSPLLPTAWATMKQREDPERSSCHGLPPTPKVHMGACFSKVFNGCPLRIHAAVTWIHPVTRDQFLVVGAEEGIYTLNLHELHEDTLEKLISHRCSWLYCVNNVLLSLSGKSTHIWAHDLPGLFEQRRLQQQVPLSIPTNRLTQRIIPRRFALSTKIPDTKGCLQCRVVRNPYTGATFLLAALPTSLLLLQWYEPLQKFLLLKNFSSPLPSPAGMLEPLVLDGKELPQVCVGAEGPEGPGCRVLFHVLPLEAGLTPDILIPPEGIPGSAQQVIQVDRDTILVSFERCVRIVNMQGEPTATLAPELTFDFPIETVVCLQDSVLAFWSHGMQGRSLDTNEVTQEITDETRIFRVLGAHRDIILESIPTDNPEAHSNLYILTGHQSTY
UniProt O00238, sequence (whole entry, looked up): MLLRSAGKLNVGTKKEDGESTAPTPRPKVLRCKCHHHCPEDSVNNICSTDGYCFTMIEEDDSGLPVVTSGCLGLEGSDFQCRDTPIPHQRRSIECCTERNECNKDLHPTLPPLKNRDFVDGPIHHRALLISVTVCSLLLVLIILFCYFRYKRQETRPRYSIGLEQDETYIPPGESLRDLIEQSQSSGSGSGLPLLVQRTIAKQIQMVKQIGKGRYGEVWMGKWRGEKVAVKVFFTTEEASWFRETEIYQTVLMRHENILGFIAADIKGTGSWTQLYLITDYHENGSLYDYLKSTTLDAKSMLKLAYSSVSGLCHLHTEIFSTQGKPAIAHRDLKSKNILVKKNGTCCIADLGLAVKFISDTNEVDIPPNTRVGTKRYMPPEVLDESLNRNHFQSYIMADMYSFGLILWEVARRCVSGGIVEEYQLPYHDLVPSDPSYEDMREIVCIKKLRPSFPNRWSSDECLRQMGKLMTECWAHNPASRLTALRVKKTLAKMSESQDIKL
UniProt O43293, sequence (whole entry, looked up): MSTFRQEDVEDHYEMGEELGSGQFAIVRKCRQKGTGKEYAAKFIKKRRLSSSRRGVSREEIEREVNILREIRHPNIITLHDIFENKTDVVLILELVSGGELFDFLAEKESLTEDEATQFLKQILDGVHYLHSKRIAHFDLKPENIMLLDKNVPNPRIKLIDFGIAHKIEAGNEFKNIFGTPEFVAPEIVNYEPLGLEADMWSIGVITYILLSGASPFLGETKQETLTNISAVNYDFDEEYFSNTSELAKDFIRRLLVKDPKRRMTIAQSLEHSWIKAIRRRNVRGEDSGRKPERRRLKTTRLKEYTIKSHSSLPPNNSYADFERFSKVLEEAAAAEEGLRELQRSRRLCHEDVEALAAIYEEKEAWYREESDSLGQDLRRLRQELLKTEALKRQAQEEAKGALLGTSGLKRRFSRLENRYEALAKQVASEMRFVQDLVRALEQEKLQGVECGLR

Set 1 — organism: Plasmodium berghei; mode: inhibitor; cell line: Huh-7; strain: GFP-expressing, liver stage; tested at: 10 µM; time: 24 h; reference: untreated control
| Compound | infection rate |
| --- | --- |
| c1ccc(C2CN3CCSC3=N2)cc1 (stereo not shown) | 83.3% |
| CNC[C@H](O)c1cccc(O)c1 | 94.8% |
| O=C(O)c1ccccc1C(=O)Nc1ccc(S(=O)(=O)Nc2nccs2)cc1 | 23.9% |
| CCCc1nc2c(C)cc(-c3nc4ccccc4n3C)cc2n1Cc1ccc(-c2ccccc2C(=O)O)cc1 | 80.9% |
| CC(=O)OCC(=O)[C@@]1(O)[C@H](OC(C)=O)C[C@H]2[C@@H]3CCC4=CC(=O)C=C[C@]4(C)[C@@]3(F)[C@@H](O)C[C@@]21C | 106% |
| CCN(CC)CCNC(=O)c1cc(S(C)(=O)=O)ccc1OC | 83% |
| C#CCN(C)Cc1ccccc1 | 98.5% |
| Cc1nnc(NS(=O)(=O)c2ccc(N)cc2)s1 | 93.7% |
| CC[C@H]1OC(=O)[C@H](C)[C@@H](O[C@H]2C[C@@](C)(OC)[C@@H](O)[C@H](C)O2)[C@H](C)[C@@H](O[C@@H]2O[C@H](C)C[C@H](N(C)C)[C@H]2O)[C@](C)(O)C[C@@H](C)/C(=N\OCOCCOC)[C@H](C)[C@@H](O)[C@]1(C)O | 103% |
| CNS(=O)(=O)Cc1ccc2[nH]cc(CCN(C)C)c2c1 | 55.8% |
| Cc1cn([C@H]2C[C@H](N=[N+]=[N-])[C@@H](CO)O2)c(=O)[nH]c1=O | 90.5% |
| CN[C@@H]1[C@H](O)[C@H](NC)[C@H]2O[C@@]3(O)C(=O)C[C@@H](C)O[C@H]3O[C@@H]2[C@H]1O | 105% |
| N[C@@H](Cc1c[nH]c2ccccc12)C(=O)O | 93.3% |

Set 2 — tested at: 1 µM
Compound: Cc1ccc(NC(=O)c2ccnc(C(F)(F)F)c2)cc1-c1cc(OCCO)nc(N2CCOCC2)c1
| target | method | measured | notes | reference | remaining binding |
| --- | --- | --- | --- | --- | --- |
| PAK6 (Homo sapiens, UniProt Q9NQU5) | competitive binding panel |  |  | vehicle | 94% |
| BMPR1B (Homo sapiens, UniProt O00238) | competitive binding panel |  |  | vehicle | 100% |
| SBK1 (Homo sapiens, UniProt Q52WX2) | competitive binding panel |  |  | vehicle | 68% |
| CIT (Homo sapiens, UniProt O14578) | competitive binding panel |  |  | vehicle | 96% |
| Myosin-IIIa (MYO3A, Homo sapiens, UniProt Q8NEV4) | competitive binding panel |  |  | vehicle | 98% |
| TLK1 (Homo sapiens, UniProt Q9UKI8) | competitive binding panel |  |  | vehicle | 87% |
| CSF1R (Homo sapiens, UniProt P07333) | competitive binding scan |  | autoinhibited form |  | 87% |
| GRK1 (Homo sapiens, UniProt Q15835) | competitive binding panel |  |  | vehicle | 98% |
| HIPK1 (Homo sapiens, UniProt Q86Z02) | competitive binding panel |  |  | vehicle | 93% |
| AKT2 (Homo sapiens, UniProt P31751) | competitive binding panel |  |  | vehicle | 100% |
| STK24 (Homo sapiens, UniProt Q9Y6E0) | competitive binding panel | MST3 |  | vehicle | 100% |
| GSK3B (Homo sapiens, UniProt P49841) | competitive binding panel |  |  | vehicle | 99% |
| MAP3K2 (Homo sapiens, UniProt Q9Y2U5) | competitive binding panel |  |  | vehicle | 75% |
| MAP3K20 (Homo sapiens, UniProt Q9NYL2) | competitive binding panel | ZAK |  | vehicle | 91% |
| EPHA4 (Homo sapiens, UniProt P54764) | competitive binding panel |  |  | vehicle | 85% |
| MAPK11 (Homo sapiens, UniProt Q15759) | competitive binding, scanMAX |  | p38-beta, 1000 nM |  | 34% |

Set 3 — read-out: enzyme activity; mode: inhibitor; tested at: 0.5 µM; reference: control
Target: Focal adhesion kinase 1 (PTK2, Homo sapiens, UniProt Q05397)
UniProt Q05397, sequence (whole entry, looked up): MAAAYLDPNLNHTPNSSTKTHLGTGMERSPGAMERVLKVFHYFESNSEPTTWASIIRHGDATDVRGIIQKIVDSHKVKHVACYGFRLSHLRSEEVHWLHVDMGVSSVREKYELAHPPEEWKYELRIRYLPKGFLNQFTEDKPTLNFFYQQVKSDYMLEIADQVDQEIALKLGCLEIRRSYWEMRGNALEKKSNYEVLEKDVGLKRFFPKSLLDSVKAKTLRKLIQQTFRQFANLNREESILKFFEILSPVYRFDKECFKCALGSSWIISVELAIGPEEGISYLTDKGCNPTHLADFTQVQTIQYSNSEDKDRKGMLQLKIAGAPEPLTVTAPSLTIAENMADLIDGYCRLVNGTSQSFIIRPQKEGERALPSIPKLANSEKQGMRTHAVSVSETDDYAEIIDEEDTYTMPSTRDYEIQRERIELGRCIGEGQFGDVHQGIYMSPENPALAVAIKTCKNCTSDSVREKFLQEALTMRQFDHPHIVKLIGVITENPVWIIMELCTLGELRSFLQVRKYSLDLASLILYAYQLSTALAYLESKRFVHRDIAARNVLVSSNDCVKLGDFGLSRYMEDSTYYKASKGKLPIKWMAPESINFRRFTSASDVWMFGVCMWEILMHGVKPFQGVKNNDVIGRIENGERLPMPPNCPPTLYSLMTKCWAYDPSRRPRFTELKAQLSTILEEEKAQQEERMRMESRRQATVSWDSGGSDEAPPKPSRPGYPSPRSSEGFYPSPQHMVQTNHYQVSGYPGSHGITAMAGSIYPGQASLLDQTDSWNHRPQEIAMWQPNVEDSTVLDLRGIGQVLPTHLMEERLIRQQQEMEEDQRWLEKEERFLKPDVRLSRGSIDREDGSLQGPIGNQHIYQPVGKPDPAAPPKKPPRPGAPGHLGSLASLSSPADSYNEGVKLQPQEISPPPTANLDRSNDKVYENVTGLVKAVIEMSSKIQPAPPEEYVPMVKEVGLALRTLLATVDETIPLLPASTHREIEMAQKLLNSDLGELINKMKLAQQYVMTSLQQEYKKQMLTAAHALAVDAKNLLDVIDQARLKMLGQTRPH
| Structure (SMILES) | remaining activity |
| --- | --- |
| O=c1cc(N2CCOCC2)oc2c1ccc1ccccc12 | 108% |
| COc1cc2ncnc(N3CCN(C(=O)Nc4ccc(Oc5ccccc5)cc4)CC3)c2cc1OC | 89.4% |
| CCC(=O)Nc1ccc2ncnc(Nc3cccc(Br)c3)c2c1 | 99.4% |
| Nc1[nH]nc2nnc(-c3c(-c4ccccc4)nn4ccccc34)cc12 | 99.2% |
| CS(=O)(=O)CCNCc1ccc(-c2ccc3ncnc(Nc4ccc(OCc5cccc(F)c5)c(Cl)c4)c3c2)o1 | 104% |
| Cn1cc(/C=C2\C(=O)Nc3ccc(S(N)(=O)=O)cc32)c2ccccc21 | 94.1% |
| CC(C)[C@H](CO)Nc1nc(Nc2cccc(Cl)c2)c2ncn(C(C)C)c2n1 | 85.9% |
| Cc1nc(Nc2ncc(C(=O)Nc3c(C)cccc3Cl)s2)cc(N2CCN(CCO)CC2)n1 | 103% |
| COc1cc2ncc(-c3ccccc3)nc2cc1OC | 100% |
| Cc1ccc(NC(=O)c2ccc(CN3CCN(C)CC3)cc2)cc1Nc1nccc(-c2cccnc2)n1 | 94.9% |
| COc1cc2ncnc(Nc3ccc(OCc4ccccc4)cc3)c2cc1OC | 105% |
| Cn1cnc2cc3c(Nc4cccc(Br)c4)ncnc3cc21 | 108% |
| COc1ccc(-c2cnc3c(-c4ccsc4)cnn3c2)cc1 | 93% |
| CN(C)CCCn1cc(C2=C(c3c[nH]c4ccccc34)C(=O)NC2=O)c2ccccc21 | 86.1% |
| C[S+]([O-])c1ccc(-c2nc(-c3ccncc3)c(-c3ccc(F)cc3)[nH]2)cc1 (stereo not shown) | 95.5% |
| CC(C)c1nn(-c2c(Cl)cccc2Cl)c2nc(Cc3ccc(OCCO)cc3)[nH]c(=O)c12 | 103% |
| O=C1NC(=O)/C(=C/c2ccc3nccnc3c2)S1 | 96.5% |
| O=C(Nc1ccc(Cl)cc1)c1ccccc1NCc1ccncc1 | 95.7% |
| COc1ccc(Cl)cc1NC(=O)Nc1cc(C)nc2ccccc12 | 97.3% |
| CCOc1cc2ncnc(Nc3cccc(Br)c3)c2cc1OCC | 101% |
| CCN1/C(=C/C(C)=O)Sc2ccc(OC)cc21 | 108% |
| CC(=O)O/N=C1/C(c2c(O)[nH]c3cc(Br)ccc23)=Nc2ccccc21 | 95.9% |

Set 4 — read-out: cell-free assay; method: competition with immobilised ligand; tested at: 1 µM
SMILES: COc1ccc2c(c1)O[C@@H](c1ccc(OC)c(OC)c1)C[C@H]2NC(=O)C1(c2ccc3c(c2)OC(F)(F)O3)CC1
| target | remaining binding [%] |
| --- | --- |
| FLT3 (Homo sapiens, UniProt P36888) | 100 |
| PRKD1 (Homo sapiens, UniProt Q15139) | 95 |
| DAPK3 (Homo sapiens, UniProt O43293) | 93 |
| NIM1K (Homo sapiens, UniProt Q8IY84) | 94 |
| PIK3CA (Homo sapiens, UniProt P42336, H1047L) | 77 |
| MAPK11 (Homo sapiens, UniProt Q15759) | 92 |
| CDK17 (Homo sapiens, UniProt Q00537) | 100 |
| BMPR2 (Homo sapiens, UniProt Q13873) | 68 |
| MAP4K2 (Homo sapiens, UniProt Q12851) | 87 |
| PLK3 (Homo sapiens, UniProt Q9H4B4) | 92 |
| STK39 (Homo sapiens, UniProt Q9UEW8) | 71 |
| PIK3CA (Homo sapiens, UniProt P42336, I800L) | 79 |
| EGFR (Homo sapiens, UniProt P00533, G719C) | 96 |
| PTK2B (Homo sapiens, UniProt Q14289) | 100 |
| Tyrosine-protein kinase ABL1, phosphorylated (ABL1, Homo sapiens, UniProt P00519, E255K) | 80 |
| Tyrosine-protein kinase JAK1, JH1 (JAK1, Homo sapiens, UniProt P23458) | 100 |
